Published values pooled from the literature.
Each numbered part is a random draw from the data of one study; scales do not carry over between parts. “And” joins repeats or separate records; there may be more than shown.

Series 1
Compound: CC(C)S(=O)(=O)c1cc2c(Nc3ccc4sc(C5CCCC5)nc4c3)ccnc2cc1OCCO
Method: CCK-8
Endpoint: survival
L929 RIPK3-/- reexpressing RIPK3 K51A/R69H; 6.25 µM: 95.6% and 92.5% and 96% and 88.2%
L929 RIPK3-/- reexpressing RIPK3 K51A/R69H; 3.125 µM, with: zVAD: 101% and 86.6% and 96% and 98.7%
L929 RIPK3-/- reexpressing RIPK3 K51A; 25 µM, with: zVAD: 50.6% and 37.8% and 39.2% and 37.2% and 40.3%
L929 RIPK3-/- reexpressing RIPK3 K51A/R69H; 12.5 µM, with: zVAD: 89.2% and 85.4% and 85% and 85.2% and 84.7%
L929 RIPK3-/- reexpressing RIPK3 K51A/R69H; 1.563 µM, with: zVAD: 89.1% and 94% and 96.1%

Series 2
Target: DNA polymerase theta, ATPase domain (POLQ, Homo sapiens, UniProt O75417)
Chain of UniProt O75417 (whole entry, unmodified, looked up): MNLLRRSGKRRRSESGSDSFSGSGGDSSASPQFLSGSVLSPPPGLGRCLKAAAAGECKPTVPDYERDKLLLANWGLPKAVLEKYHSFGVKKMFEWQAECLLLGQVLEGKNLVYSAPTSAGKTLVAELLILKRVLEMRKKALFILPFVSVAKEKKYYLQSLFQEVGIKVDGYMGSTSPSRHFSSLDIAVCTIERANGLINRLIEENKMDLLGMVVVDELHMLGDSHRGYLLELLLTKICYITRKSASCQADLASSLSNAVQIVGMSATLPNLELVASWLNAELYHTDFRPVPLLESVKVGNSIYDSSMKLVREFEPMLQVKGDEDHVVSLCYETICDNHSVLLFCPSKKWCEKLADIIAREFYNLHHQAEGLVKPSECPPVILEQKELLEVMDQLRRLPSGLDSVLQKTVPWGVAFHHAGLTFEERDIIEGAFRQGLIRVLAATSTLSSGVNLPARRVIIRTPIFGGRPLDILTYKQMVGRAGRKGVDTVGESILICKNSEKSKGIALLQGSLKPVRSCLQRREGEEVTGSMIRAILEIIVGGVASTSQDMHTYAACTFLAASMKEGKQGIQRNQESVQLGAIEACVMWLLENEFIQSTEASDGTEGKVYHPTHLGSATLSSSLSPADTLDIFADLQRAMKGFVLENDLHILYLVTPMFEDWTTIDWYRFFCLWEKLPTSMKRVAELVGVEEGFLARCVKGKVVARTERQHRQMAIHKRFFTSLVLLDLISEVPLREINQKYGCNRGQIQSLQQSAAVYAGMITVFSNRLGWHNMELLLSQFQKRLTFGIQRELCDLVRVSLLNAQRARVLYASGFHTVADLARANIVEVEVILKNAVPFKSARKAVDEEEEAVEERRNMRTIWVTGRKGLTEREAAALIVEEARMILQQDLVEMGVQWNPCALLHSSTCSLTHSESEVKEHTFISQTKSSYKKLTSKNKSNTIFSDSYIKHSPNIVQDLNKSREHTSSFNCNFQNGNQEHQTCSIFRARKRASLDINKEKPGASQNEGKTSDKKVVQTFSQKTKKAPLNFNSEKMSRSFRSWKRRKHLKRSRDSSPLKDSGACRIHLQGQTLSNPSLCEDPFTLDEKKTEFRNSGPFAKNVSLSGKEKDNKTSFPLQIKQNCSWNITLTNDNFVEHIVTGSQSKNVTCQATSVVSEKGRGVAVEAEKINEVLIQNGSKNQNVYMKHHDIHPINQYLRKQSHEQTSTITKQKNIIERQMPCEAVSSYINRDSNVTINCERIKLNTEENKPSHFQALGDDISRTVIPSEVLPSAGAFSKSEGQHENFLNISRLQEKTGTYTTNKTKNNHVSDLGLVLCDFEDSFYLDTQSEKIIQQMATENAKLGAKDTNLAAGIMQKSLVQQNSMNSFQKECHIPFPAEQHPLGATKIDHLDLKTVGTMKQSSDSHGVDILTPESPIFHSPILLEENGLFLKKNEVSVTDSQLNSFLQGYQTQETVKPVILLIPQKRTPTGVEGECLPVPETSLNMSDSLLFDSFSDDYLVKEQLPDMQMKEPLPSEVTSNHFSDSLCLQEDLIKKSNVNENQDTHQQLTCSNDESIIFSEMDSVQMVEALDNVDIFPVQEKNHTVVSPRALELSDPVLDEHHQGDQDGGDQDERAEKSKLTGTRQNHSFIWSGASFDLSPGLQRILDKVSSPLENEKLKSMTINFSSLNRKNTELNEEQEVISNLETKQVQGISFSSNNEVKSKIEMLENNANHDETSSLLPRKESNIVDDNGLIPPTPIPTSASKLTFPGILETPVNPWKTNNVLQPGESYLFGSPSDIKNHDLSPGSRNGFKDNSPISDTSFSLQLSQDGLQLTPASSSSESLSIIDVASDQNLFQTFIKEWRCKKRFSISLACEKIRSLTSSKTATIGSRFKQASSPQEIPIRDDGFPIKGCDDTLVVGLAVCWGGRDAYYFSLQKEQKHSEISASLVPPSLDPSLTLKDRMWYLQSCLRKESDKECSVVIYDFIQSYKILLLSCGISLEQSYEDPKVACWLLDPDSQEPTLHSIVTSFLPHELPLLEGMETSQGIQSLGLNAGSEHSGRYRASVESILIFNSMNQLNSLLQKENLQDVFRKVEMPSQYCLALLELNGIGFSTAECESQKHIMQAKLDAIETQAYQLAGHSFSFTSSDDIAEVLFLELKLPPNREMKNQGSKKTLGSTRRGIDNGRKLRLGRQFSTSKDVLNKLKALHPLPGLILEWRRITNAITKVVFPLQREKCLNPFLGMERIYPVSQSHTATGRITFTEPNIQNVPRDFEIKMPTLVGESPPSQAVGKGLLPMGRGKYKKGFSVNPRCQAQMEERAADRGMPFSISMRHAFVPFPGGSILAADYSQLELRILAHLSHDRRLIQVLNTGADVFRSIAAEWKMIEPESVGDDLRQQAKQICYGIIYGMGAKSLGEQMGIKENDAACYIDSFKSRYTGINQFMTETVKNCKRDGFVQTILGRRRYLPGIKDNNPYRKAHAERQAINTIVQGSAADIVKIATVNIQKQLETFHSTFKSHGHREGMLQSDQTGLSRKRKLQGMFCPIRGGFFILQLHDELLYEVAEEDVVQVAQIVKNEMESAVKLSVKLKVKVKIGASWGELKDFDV
Read-out: enzyme activity
Action: inhibitor
Tested at: 77 µM
Reference: untreated
Endpoint: remaining activity
CC(=O)[C@H]1CC[C@H]2[C@@H]3CC[C@H]4C[C@H](O)CC[C@]4(C)[C@H]3CC[C@]12C: 97.9%
c1ccc(C2CC2)c(OCC2=NCCN2)c1: 102%
COc1ccc(CC2c3cc(OC)c(OC)cc3CCN2C)cc1OC (racemic): 99.4%
CCCN(CCC)CCc1ccc(O)c(O)c1: 99.9%
CC(C)[C@]12O[C@H]1[C@@H]1O[C@]13[C@]1(O[C@H]1C[C@H]1C4=C(CC[C@@]13C)C(=O)OC4)[C@@H]2O: 95.9%
Cc1cccc(Cc2c[nH]cn2)c1C: 90.9%
CCN1C[C@]2(C)CC[C@H](O)[C@]34C1[C@@H](C[C@H]23)[C@@]1(O)C[C@H](OC)[C@H]2C[C@@H]4[C@@H]1[C@H]2O: 103%

Series 3
Target: CRBN/Zinc finger protein Helios (Homo sapiens, UniProt Q96SW2+Q9UKS7)
Chain of UniProt Q96SW2 (whole entry, looked up): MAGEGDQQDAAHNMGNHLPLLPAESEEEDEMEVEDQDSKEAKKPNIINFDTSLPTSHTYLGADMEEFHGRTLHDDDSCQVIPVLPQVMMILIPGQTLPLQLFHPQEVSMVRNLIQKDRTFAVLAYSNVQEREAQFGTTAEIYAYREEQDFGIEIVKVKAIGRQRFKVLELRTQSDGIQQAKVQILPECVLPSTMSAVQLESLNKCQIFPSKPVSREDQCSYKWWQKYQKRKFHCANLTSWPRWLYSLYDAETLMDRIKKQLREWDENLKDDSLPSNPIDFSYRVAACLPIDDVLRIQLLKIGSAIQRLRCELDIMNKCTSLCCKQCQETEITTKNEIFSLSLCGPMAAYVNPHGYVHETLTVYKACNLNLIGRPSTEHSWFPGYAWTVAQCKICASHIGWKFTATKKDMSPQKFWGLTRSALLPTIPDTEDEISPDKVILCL
Chain of UniProt Q9UKS7 (whole entry, looked up): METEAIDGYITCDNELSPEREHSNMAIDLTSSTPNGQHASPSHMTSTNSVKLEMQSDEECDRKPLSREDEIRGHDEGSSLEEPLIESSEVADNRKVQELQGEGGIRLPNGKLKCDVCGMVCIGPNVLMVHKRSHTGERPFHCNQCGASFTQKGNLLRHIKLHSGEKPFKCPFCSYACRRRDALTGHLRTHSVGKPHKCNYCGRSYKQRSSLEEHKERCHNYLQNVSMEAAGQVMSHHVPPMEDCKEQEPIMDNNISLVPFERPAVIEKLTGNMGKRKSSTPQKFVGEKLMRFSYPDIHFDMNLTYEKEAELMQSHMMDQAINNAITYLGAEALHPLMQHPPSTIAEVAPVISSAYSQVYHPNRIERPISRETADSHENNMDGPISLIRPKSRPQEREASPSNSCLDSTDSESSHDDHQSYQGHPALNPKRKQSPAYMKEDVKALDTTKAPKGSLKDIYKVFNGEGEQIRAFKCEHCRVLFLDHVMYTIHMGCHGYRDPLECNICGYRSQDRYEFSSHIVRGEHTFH
Action: degrader
Method: HiBiT
Cell line: HEK293
Tested at: 1111.11 nM
Endpoint: protein remaining
O=C1CCC(N2Cc3c(ccc4c3OCC43CCN(CC4CCCCC4)CC3)C2=O)C(=O)N1 (stereo not shown): 43.6%
O=C1CCC(N2Cc3c(ccc4c3OCC43CCN(Cc4ccccc4)CC3(F)F)C2=O)C(=O)N1 (stereo not shown): 37.6%
O=C1CCC(N2Cc3c(ccc4c3OCC43CCN(Cc4ccccn4)CC3)C2=O)C(=O)N1 (stereo not shown): 39%
O=C1CCC(N2Cc3c(ccc4c3OCC43CCN(Cc4ccccc4)C3)C2=O)C(=O)N1 (stereo not shown): 71.9%
O=C1CCC(N2Cc3c(ccc4c3OCC43CCCN(Cc4ccccc4)CC3)C2=O)C(=O)N1 (stereo not shown): 82.6%
O=C1CCC(N2Cc3c(ccc4c3OCC43CCN(Cc4ccsc4)CC3)C2=O)C(=O)N1 (stereo not shown): 20.3%

Further values, each from its own experiment
COc1cc2c(cc1O)CC1c3c(cc(O)c(OC)c3-2)CCN1C (stereo not shown)  remaining compound (mouse, microsomes or S9; 2 µM, 0.5 h): 49.8%

For quick reference, copied from above (series 2):
CC(=O)[C@H]1CC[C@H]2[C@@H]3CC[C@H]4C[C@H](O)CC[C@]4(C)[C@H]3CC[C@]12C: 97.9%
c1ccc(C2CC2)c(OCC2=NCCN2)c1: 102%
COc1ccc(CC2c3cc(OC)c(OC)cc3CCN2C)cc1OC (racemic): 99.4%
